Measured values collected from several papers.
Protocols differ between the studies behind these lines.

For `CC(C)C[C@@H](NC(=O)CNC(=O)[C@@H](CCCCN)NC(=O)[C@@H](CC(C)C)NC(=O)[C@@H](CCCCN)NC(=O)[C@@H](CCCNC(=N)N)NC(=O)[C@@H](CC(C)C)NC(=O)[C@@H](CC(C)C)NC(=O)[C@@H](CCCNC(=N)N)NC(=O)[C@H](N)CCCNC(=N)N)C(=O)N[C@H](CCCCN)C(=O)N[C@H](CCCCN)C(=O)N[C@H](Cc1ccc(O)cc1)C(=O)N[C@H](CC(C)C)C(=O)N[C@H](Cc1ccc(O)cc1)C(=O)N[C@H](Cc1ccccc1)C(=O)N[C@H](CCCCN)C(=O)N[C@H](CC(C)C)C(=O)N[C@H](CCC(N)=O)C(=O)N[C@H](CC(C)C)C(=O)N[C@H](CC(C)C)C(=O)N[C@H](CCCCN)C(=O)N[C@H](CCCCN)C(N)=O`, the MIC was 4 µM (Staphylococcus aureus; KCTC 1621, Mueller-Hinton broth; together with: 150 mM NaCl).
The MIC of `CC[C@H](C)[C@H](N)C(=O)N[C@@H](CC(C)C)C(=O)NCC(=O)N[C@@H](CCC(=O)O)C(=O)N[C@H](C(=O)N[C@@H](Cc1c[nH]c2ccccc12)C(=O)N[C@@H](CCCCN)C(=O)NCC(=O)N[C@H](C(=O)N[C@@H](CCCCN)C(=O)N[C@@H](CC(=O)O)C(=O)N[C@H](C(=O)N[C@@H](CC(C)C)C(N)=O)[C@@H](C)CC)[C@@H](C)CC)[C@@H](C)CC` is reported as greater than 100 µM (Staphylococcus aureus; broth microdilution; ATCC 25923; concentration not given, together with: BSA).
For `C[N+](C)(C)CCCCCNCC12CC3CC(CC(C3)C1)C2`, the IC50 was 10 µM (Plasmodium falciparum; 3D7).
`CC(C)C[C@H](NC(=O)CNC(=O)CNC(=O)CNC(=O)CNC(=O)CNC(=O)[C@H](Cc1ccc(O)cc1)NC(=O)[C@H](CC(C)C)NC(=O)[C@@H](NC(=O)CNC(=O)[C@H](Cc1ccc(O)cc1)NC(=O)[C@H](CCCCN)NC(=O)[C@H](CC(N)=O)NC(=O)[C@@H](NC(=O)[C@H](CCCCN)NC(=O)[C@H](Cc1c[nH]c2ccccc12)NC(=O)CN)[C@@H](C)O)[C@@H](C)O)C(=O)N[C@@H](CCCCN)C(=O)N[C@@H](CCCCN)C(=O)N[C@@H](CC(C)C)C(=O)N[C@@H](CC(C)C)C(=O)N[C@@H](CC(C)C)C(=O)N[C@@H](CC(C)C)C(=O)N[C@@H](CC(C)C)C(=O)N[C@@H](CCCCN)C(=O)N[C@@H](CCCCN)C(=O)N[C@@H](CC(C)C)C(=O)NCC(=O)O` gave an MIC of 128 mg/L (Staphylococcus aureus; ATCC 25923, Mueller-Hinton broth; 18 to 24 h, 37 °C).
`CC[C@H](C)[C@H](NC(=O)[C@H](CCCNC(=N)N)NC(=O)[C@H](CCCNC(=N)N)NC(=O)[C@H](CCCNC(=N)N)NC(=O)[C@H](CCCNC(=N)N)NC(=O)[C@H](CCCNC(=N)N)NC(=O)[C@@H](N)CCCNC(=N)N)C(=O)N[C@@H](CO)C(=O)N[C@@H](Cc1ccccc1)C(=O)N[C@@H](CC(C)C)C(=O)NCC(=O)N[C@@H](CO)C(=O)N[C@@H](CCCCN)C(=O)N[C@@H](CCCCN)C(=O)N[C@@H](CCCCN)C(=O)N[C@@H](CCCCN)C(=O)N[C@@H](CCCCN)C(=O)N[C@@H](CC(C)C)C(=O)N[C@@H](CC(C)C)C(=O)N[C@@H](CCCCN)C(=O)N[C@@H](CCCNC(=N)N)C(N)=O` has an MIC of 64 µM (Staphylococcus aureus; broth microdilution; 24 h, 37 °C).
`CN(C)CCCN1c2ccccc2Sc2ccccc21` gave an IC50 of 7.94 µM (Plasmodium falciparum; 7G8).
`CCn1cc(C(=O)O)c(=O)c2cc(F)c(N3CCNCC3)cc21` gave an MIC of 64 µM (Staphylococcus aureus; 1199B (NorA overexpressing)).
`CC[C@H](C)[C@H](NC(=O)[C@H](Cc1ccc(O)cc1)NC(=O)[C@@H](NC(=O)[C@H](Cc1ccc(O)cc1)NC(=O)[C@@H]1CCCN1C(=O)[C@@H](NC(=O)[C@H](C)N)[C@@H](C)CC)[C@@H](C)CC)C(=O)N[C@@H](Cc1c[nH]c2ccccc12)C(=O)N[C@@H](CCCNC(=N)N)C(=O)N[C@@H](CC(C)C)C(=O)N[C@@H](CC(C)C)C(=O)N[C@@H](CCCNC(=N)N)C(=O)N[C@@H](CCCCN)C(=O)NCC(=O)O` has an MIC of 3.75 µM (Staphylococcus aureus; broth microdilution; ATCC 19609; 18 h, 37 °C).
For `CC[C@H](C)[C@H](NC(=O)[C@H](CC(C)C)NC(=O)[C@H](CCCNC(=N)N)NC(=O)[C@@H](N)CCCNC(=N)N)C(=O)N[C@@H](CCCNC(=N)N)C(=O)N[C@@H](CCCCN)C(=O)N[C@@H](CC(C)C)C(=O)N[C@@H](CCCCN)C(=O)NCC(=O)N1CCC[C@H]1C(=O)N[C@@H](CCCCN)C(=O)N[C@H](C(=O)N[C@@H](Cc1ccc(O)cc1)C(=O)N[C@@H](CC(C)C)C(=O)N[C@@H](Cc1ccc(O)cc1)C(=O)N[C@@H](Cc1ccccc1)C(=O)N[C@@H](CCCCN)C(=O)N[C@@H](CC(C)C)C(=O)N[C@@H](CCC(N)=O)C(=O)N[C@@H](CC(C)C)C(=O)N[C@@H](CC(C)C)C(=O)N[C@@H](CCCCN)C(=O)N[C@@H](CCCCN)C(N)=O)[C@@H](C)CC`, the MIC was 16 µM (Staphylococcus aureus; broth microdilution; KCTC 1621, Mueller-Hinton broth; 24 h, 37 °C).
`CCCCCCC#Cc1cncc(-c2nnc(SCc3ccc([N+](=O)[O-])cc3)n2CCCN)c1` has an MIC of 8 mg/L (Staphylococcus aureus; broth microdilution; Mu50 MRSA VISA; 18 to 24 h, 37 °C).
`CC[C@H](C)[C@H](NC(=O)[C@H](CC(C)C)NC(=O)[C@H](CCCNC(=N)N)NC(=O)[C@H](Cc1c[nH]c2ccccc12)NC(=O)[C@H](CCCNC(=N)N)NC(=O)[C@H](CCCCN)NC(=O)[C@H](CCCNC(=N)N)NC(=O)[C@H](Cc1c[nH]c2ccccc12)NC(=O)[C@H](Cc1c[nH]cn1)NC(=O)[C@@H](NC(=O)CNC(=O)CNC(=O)[C@H](CCSC)NC(=O)[C@H](C)NC(=O)[C@@H](N)CC(C)C)C(C)C)C(=O)N[C@@H](C)C(=O)N[C@@H](CC(N)=O)C(=O)N[C@@H](CCSC)C(=O)N[C@@H](CCCNC(=N)N)C(=O)N[C@H](C(=O)N[C@@H](Cc1c[nH]c2ccccc12)C(=O)N[C@@H](Cc1c[nH]cn1)C(=O)N[C@@H](CCCNC(=N)N)C(=O)N1CCC[C@H]1C(=O)N[C@@H](CC(N)=O)C(=O)N[C@@H](Cc1ccccc1)C(=O)N[C@@H](CCCNC(=N)N)C(=O)N[C@@H](CC(=O)O)C(=O)N[C@@H](Cc1c[nH]cn1)C(=O)O)[C@@H](C)CC` has an MIC of 37.9 µM (Staphylococcus aureus; broth microdilution; ATCC 29213, Mueller-Hinton broth; 16 to 20 h, 37 °C).
`CN[C@H](CC(C)C)C(=O)N[C@H]1C(=O)N[C@@H](CC(N)=O)C(=O)N[C@H]2C(=O)N[C@H]3C(=O)N[C@H](C(=O)N[C@H](C(=O)O)c4cc(O)cc(O)c4-c4cc3ccc4O)[C@H](O)c3ccc(c(Cl)c3)Oc3cc2cc(c3O[C@@H]2O[C@H](CO)[C@@H](O)[C@H](O)[C@H]2O[C@H]2C[C@](C)(N)[C@H](O)[C@H](C)O2)Oc2ccc(cc2Cl)[C@H]1O` has an MIC of 8 mg/L (Staphylococcus aureus; broth microdilution; VISA NRS402, tryptic soy broth; 20 to 24 h, 37 °C, 0.002% polysorbate 80).
For `CCOc1ccc2ccccc2c1C(=O)N[C@@H]1C(=O)N2[C@@H]1SC(C)(C)[C@@H]2C(=O)O`, the MIC was 256 mg/L (Staphylococcus aureus; CRB, PBP4 overexpressor).
`CC[C@H](C)[C@H](NC(=O)[C@H](CC(C)C)NC(=O)[C@H](CCCNC(=N)N)NC(=O)[C@@H](N)CCCNC(=N)N)C(=O)N[C@@H](CCCNC(=N)N)C(=O)N[C@@H](CCCCN)C(=O)N[C@@H](CC(C)C)C(=O)N[C@@H](CCCCN)C(=O)NCC(=O)N[C@@H](CC(C)C)C(=O)N[C@@H](CCCCN)C(=O)N[C@@H](CCCCN)C(=O)N[C@@H](Cc1ccc(O)cc1)C(=O)N[C@@H](CC(C)C)C(=O)N[C@@H](Cc1ccc(O)cc1)C(=O)N[C@@H](Cc1ccccc1)C(=O)N[C@@H](CCCCN)C(=O)N[C@@H](CC(C)C)C(=O)N[C@@H](CCC(N)=O)C(=O)N[C@@H](CC(C)C)C(=O)N[C@@H](CC(C)C)C(=O)N[C@@H](CCCCN)C(=O)N[C@@H](CCCCN)C(N)=O` gave an MIC of 4 µM (Staphylococcus aureus; broth microdilution; KCTC 1621, Mueller-Hinton broth; no added salt).
`CC[C@H](C)[C@H](NC(=O)[C@H](Cc1c[nH]c2ccccc12)NC(=O)[C@@H](NC(=O)[C@@H](NC(=O)[C@@H](NC(=O)[C@H](CCCNC(=N)N)NC(=O)[C@@H](N)CCCNC(=N)N)[C@@H](C)CC)[C@@H](C)O)[C@@H](C)CC)C(=O)N[C@H](C(=O)N[C@H](C(=O)N[C@@H](CCCNC(=N)N)C(=O)N[C@@H](CCCNC(=N)N)C(N)=O)[C@@H](C)CC)[C@@H](C)O` gave an MIC of 128 µM (Staphylococcus aureus; MRSA 43300; 24 h, 37 °C).
`CN[C@H](CC(C)C)C(=O)N[C@H]1C(=O)N[C@@H](CC(N)=O)C(=O)N[C@H]2C(=O)N[C@H]3C(=O)N[C@H](C(=O)N[C@H](C(=O)O)c4cc(O)cc(O)c4-c4cc3ccc4O)[C@H](O)c3ccc(c(Cl)c3)Oc3cc2cc(c3O[C@@H]2O[C@H](CO)[C@@H](O)[C@H](O)[C@H]2O[C@H]2C[C@](C)(N)[C@H](O)[C@H](C)O2)Oc2ccc(cc2Cl)[C@H]1O` has an MIC of 0.3 µM (Staphylococcus aureus; MRSA 44; 16 h).
For `COc1ccc2ccc(O)c(/C=N/[C@H]3CCCC[C@H]3/N=C/c3ccc(-c4ccccc4)cc3O)c2c1`, the MIC was greater than 40 µM (Staphylococcus aureus; bacterial growth, broth microdilution; vancomycin-intermediate).

Repeated from above:
`CC[C@H](C)[C@H](NC(=O)[C@H](Cc1ccc(O)cc1)NC(=O)[C@@H](NC(=O)[C@H](Cc1ccc(O)cc1)NC(=O)[C@@H]1CCCN1C(=O)[C@@H](NC(=O)[C@H](C)N)[C@@H](C)CC)[C@@H](C)CC)C(=O)N[C@@H](Cc1c[nH]c2ccccc12)C(=O)N[C@@H](CCCNC(=N)N)C(=O)N[C@@H](CC(C)C)C(=O)N[C@@H](CC(C)C)C(=O)N[C@@H](CCCNC(=N)N)C(=O)N[C@@H](CCCCN)C(=O)NCC(=O)O` has an MIC of 3.75 µM (Staphylococcus aureus; broth microdilution; ATCC 19609; 18 h, 37 °C).
For `CC[C@H](C)[C@H](NC(=O)[C@H](CC(C)C)NC(=O)[C@H](CCCNC(=N)N)NC(=O)[C@@H](N)CCCNC(=N)N)C(=O)N[C@@H](CCCNC(=N)N)C(=O)N[C@@H](CCCCN)C(=O)N[C@@H](CC(C)C)C(=O)N[C@@H](CCCCN)C(=O)NCC(=O)N1CCC[C@H]1C(=O)N[C@@H](CCCCN)C(=O)N[C@H](C(=O)N[C@@H](Cc1ccc(O)cc1)C(=O)N[C@@H](CC(C)C)C(=O)N[C@@H](Cc1ccc(O)cc1)C(=O)N[C@@H](Cc1ccccc1)C(=O)N[C@@H](CCCCN)C(=O)N[C@@H](CC(C)C)C(=O)N[C@@H](CCC(N)=O)C(=O)N[C@@H](CC(C)C)C(=O)N[C@@H](CC(C)C)C(=O)N[C@@H](CCCCN)C(=O)N[C@@H](CCCCN)C(N)=O)[C@@H](C)CC`, the MIC was 16 µM (Staphylococcus aureus; broth microdilution; KCTC 1621, Mueller-Hinton broth; 24 h, 37 °C).
